# Measured values from different studies.
# “And” joins repeats or separate records; there may be more than shown.
# Target: Tyrosine-protein kinase Fgr (FGR, Homo sapiens, UniProt P09769)
# Chain of UniProt P09769 (whole entry, looked up): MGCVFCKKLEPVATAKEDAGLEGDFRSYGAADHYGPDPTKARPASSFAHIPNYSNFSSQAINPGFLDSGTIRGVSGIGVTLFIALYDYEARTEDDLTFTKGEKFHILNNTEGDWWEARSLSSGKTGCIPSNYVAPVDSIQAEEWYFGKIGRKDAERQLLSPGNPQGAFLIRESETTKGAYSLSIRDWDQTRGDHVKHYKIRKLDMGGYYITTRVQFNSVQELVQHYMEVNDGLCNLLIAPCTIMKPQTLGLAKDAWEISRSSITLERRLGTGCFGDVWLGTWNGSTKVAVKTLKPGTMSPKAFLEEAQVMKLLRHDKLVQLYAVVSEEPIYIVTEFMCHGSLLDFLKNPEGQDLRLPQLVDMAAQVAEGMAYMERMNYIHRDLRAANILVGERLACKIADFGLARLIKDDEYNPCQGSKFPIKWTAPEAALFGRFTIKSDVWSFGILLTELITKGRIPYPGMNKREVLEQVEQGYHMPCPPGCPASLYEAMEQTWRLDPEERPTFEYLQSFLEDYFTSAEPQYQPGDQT
SMILES,test,setting,how to read,endpoint,result
CCN1CCN(Cc2ccc(C(=O)Nc3ccc(C)c(NCc4cnc5[nH]ccc5c4OC)c3)cc2C(F)(F)F)CC1,"binding, competition with immobilised ligand",1 µM,,remaining binding,1%
O=C=[N][Ru-4]123([n]4c5ccc(O)cc5c5c6c(c7cc(F)c[n+]1c7c54)C(=O)NC6=O)[S+]1CC[S+]2CC[S+]3CC1 (stereo not drawn),enzyme activity,"100 nM, human enzyme, together with: 10 µM ATP",reference: untreated,remaining activity,81%
COc1cc(Nc2nccc(-c3cnn4nc(OC)ccc34)n2)cc(C(F)(F)F)c1,"binding, competition with immobilised ligand",1 µM,,remaining binding,86%
CN1CCN(Cc2ccc(-c3ccc(CO[C@H]4CCC[C@@H]4NC(=O)c4cc(-c5cnn(C)c5)cnc4N)cc3)cc2)CC1,"enzyme activity, inhibitor",0.1 µM,,inhibition,-1%
Cc1ccc(-c2c(/C=C(\C#N)C(=O)NC(C)C)n(CCCO)c3ncnc(N)c23)cc1,"cell-free assay, competition with immobilised ligand",1 µM,,remaining binding,52%
NC(=O)[C@@H](O)C[C@H]1CCc2sc3ncnc(O[C@H]4CC[C@H](N5CCOCC5)CC4)c3c21,"enzyme activity, inhibitor, radiometric",10 µM,,inhibition,71%
Cc1cccc(O[C@H]2CCC[C@@H](C(C)CNCc3ccncc3)C2)c1 (relative stereo),"cell-free assay, inhibitor",1 µM,,inhibition,0%
Nc1ncc2c(n1)-c1c([nH]c3ccc(C4=CCOCC4)cc13)CCC2,"binding, competition with immobilised ligand",1 µM,,remaining binding,97%
O=C(Cc1ccc(OCc2ccccc2)cc1)NC1(C(=O)O)CCN(C(=O)c2ccc(-c3cccc(Cl)c3)cc2)CC1,"enzyme activity, inhibitor",10 µM,,activity vs control,115%
CCN1CCN(Cc2ccc(NC(=O)c3ccc(C)c(NC(=O)c4cncc(-c5cccs5)c4)c3)cc2C(F)(F)F)CC1,"binding, competition with immobilised ligand",1 µM,,remaining binding,0.45%
COc1ccc(NC(=O)Nc2ccc3c(c2)C(=O)N(C(C)CO)CC(C)C(CN(C)Cc2ccc4c(c2)OCO4)O3)cc1 (stereo not drawn),"kinase activity, KinaseProfiler","0.03 µM, species human",reference: control,remaining activity,102%
C=CC(=O)Nc1cccc(-c2cnc3[nH]cc(C(=O)NC(C)(C)C)c3n2)c1,"enzyme activity, inhibitor",0.1 µM,,inhibition,4%
COCC12C(=O)NC3C4(C(OC)CC1O)C1CC5(O)C(OC)C(O)C(OC(C)=O)(C1C5OC(=O)c1ccccc1)C3(O)C(OC)C24 (stereo not drawn),"kinase activity, inhibitor, ProQinase kinase profiling",25 µM,reference: control,remaining activity,111% and 85%
C=CC(=O)N1CCCC(n2c(=O)c3ncccc3n(Cc3ccc(Oc4ccccc4)cc3)c2=O)C1 (stereo not drawn),"cell-free assay, competition with immobilised ligand",1 µM,,remaining binding,100%
COc1c(OCCCN2CCOCC2)ccc2c1N=C(NC(=O)c1cnc(N)nc1)N1CCN=C21,"kinase activity, inhibitor",1 µM,reference: untreated control,remaining activity,76%

# Excerpt of the above:
SMILES,test,setting,how to read,endpoint,result
NC(=O)[C@@H](O)C[C@H]1CCc2sc3ncnc(O[C@H]4CC[C@H](N5CCOCC5)CC4)c3c21,"enzyme activity, inhibitor, radiometric",10 µM,,inhibition,71%
Cc1cccc(O[C@H]2CCC[C@@H](C(C)CNCc3ccncc3)C2)c1 (relative stereo),"cell-free assay, inhibitor",1 µM,,inhibition,0%
